Assay results from different studies.
Each numbered part is a random draw from the data of one study; scales do not carry over between parts. Changes are numbered by the printed parent chain.

Set 1 — technique: RNA Bind-n-Seq; form: RNA; matrix: in vitro; tested at: not given; baseline: input RNA pool; direction: higher = stronger binding
Target: RING finger protein unkempt homolog, zinc fingers 1-6, GST-SBP tag (UNK, Homo sapiens, UniProt Q9C0B0, residues 30-357)
UniProt Q9C0B0, sequence (30-357, looked up): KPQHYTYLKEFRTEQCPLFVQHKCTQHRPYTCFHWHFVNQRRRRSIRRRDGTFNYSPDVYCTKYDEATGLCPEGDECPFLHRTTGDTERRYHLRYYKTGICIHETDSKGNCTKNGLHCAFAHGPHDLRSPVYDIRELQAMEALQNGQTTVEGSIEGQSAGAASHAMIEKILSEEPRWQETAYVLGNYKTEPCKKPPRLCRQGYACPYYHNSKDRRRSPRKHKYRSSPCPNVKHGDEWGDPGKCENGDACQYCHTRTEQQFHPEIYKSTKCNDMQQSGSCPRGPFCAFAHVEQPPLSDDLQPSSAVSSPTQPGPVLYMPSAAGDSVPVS
Notes: RNA with constant flanks, human-mouse chimeric sites, ends assumed
All sequences stand within: GGGAGUUCUACAGUCCGACGAUC … CAACAGAGGAUUGAGCAUCA
Oligonucleotide	bound/input enrichment [ratio]
AAAGUGAUAACCAUGUUUGUCCAACGACAGGUGUUUGCGGAGAGCAAAGAUGAGAUUGCGUUAGUCCUCUAUGGCACAGAUGGCACUGAUAAUGCCCUUGCUGGCAAGGACCAGUAUCAG	0.135
ACUCUUGACUCUUUCCAUCCUCUUCCUUUCCCUCUUGAUAUUCAAGGCCAUGAAUCCCAAAAUAACAGUCUUAGUGGGAGGCUAGCACCCAAACUGAGAAUAAAUCCACCCCAGUGUCUC	0.618
GCUGGAUCUUCUAAGUACCAGUGGGACAUUAUGAAAUCCCUUGGGCUCUCUGAUGACGACAUAGUGAAGUUUUCUGAAGCAGAGCACUGGCUUGAUUAUUUCCCGCCACUGGCCGUUCAG	0.131
CUUAAUGUUAAUAUUUUUAAAGGAAGCUAAAACCAUGGUCUGCUUUUGGUACAACACGCAUUAAUAAAAGGUUAAGUUUUGUUUUCCACUGAAGUACUAUUUAACAUCUCAGAAAAAAAC	0.247
GAAACUAUUCCUAAAGAGGAGAAAGCUGAAAAGGAAGCUCGGAGAUCGUCUCUCGAGAAACAUAGAAAAGAAAAGCCUUUUAAAACCGGGAGAGGCAGAAUUUCCACUCCUGAAAGAAAA	0.567
ACUCUUGACUCUUUCCAUCCUCUUCCUUUUCCUCUUGAUAUUCAAGGCCAUGAAUCCCAAAAUAACAGUCUUAGUGGCUAGCACCCACCCAAACUGAGAAUAAAUCCACCCCAGUGUCUC	0.471
CUGGCCUUCUGAGCAUCAGGGGCCUCCUUUCGUAUAGUCACUGCUUCUGCAUCAGAUACUUUCAGCUGCAACUCCCUACUGGGUGGGGCACCCAUUUGAGGCAGGGUGUUUUGGUACCCU	0.297
GCAGGAUCUUCUAAGUACCAGUGGGGCAUUAUGAAAUCCCUUGGGCUCUCUGAUGACGACAUAGUGAAGUUUUCUGAAGCAGAGCACUGGCUUGAUUAUUUCCCACCACUGGCUAUUCAG	0.113

Set 2 — target: CCND2, cyclin fold, Cln2 fusion (human); technique: yeast growth competition, sequencing; matrix: yeast; notes: weak parent motif; baseline: not given; direction: higher = stronger binding
Parent: DOT1L docking peptide (human); SEAKRRIVFTITT; partner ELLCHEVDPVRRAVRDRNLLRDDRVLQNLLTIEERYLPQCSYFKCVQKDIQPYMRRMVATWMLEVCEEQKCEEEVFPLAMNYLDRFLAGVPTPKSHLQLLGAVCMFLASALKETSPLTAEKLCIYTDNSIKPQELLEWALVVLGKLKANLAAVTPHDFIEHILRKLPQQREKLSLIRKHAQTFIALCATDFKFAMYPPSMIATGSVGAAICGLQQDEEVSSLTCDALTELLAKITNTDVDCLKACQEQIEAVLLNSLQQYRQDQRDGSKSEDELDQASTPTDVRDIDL
Substitution	normalised enrichment score
T12A	0.441
I11A	0.179
V8A	0.151
F9A	0.367
T13A	0.62
R6A	0.513

Set 3 — technique: aptamer microarray, sandwich; form: DNA with 2'F-ANA; matrix: in vitro; tested at: 200 nM; together with: Cy3 exosite-II aptamer, 400 nM; direction: higher = stronger binding; oligonucleotide: GGTTGGTGTGGTTGG
Target: Prothrombin, mature alpha-thrombin (F2, Homo sapiens, UniProt P00734)
Notes: whole 15-mer aptamer, many near background
Modification	mean fluorescence intensity
2'F-ANA at 3 5 7 8 9 12 13	222 a.u.
2'F-ANA at 1 2 4 6 7 9 11 13 14	50.3 a.u.
2'F-ANA at 2 3 9 10	412 a.u.
2'F-ANA at 1 3 4 6 12 14 15	98.3 a.u.
2'F-ANA at 1 3 5 6 10 11 13	49.3 a.u.
2'F-ANA at 1 4 5 7 8 10 12 13	54.2 a.u.
2'F-ANA at 2 3 4 5 8 11 12 13	119 a.u.
2'F-ANA at 1 4 5 6 7 10 13 14 15	45.5 a.u.
2'F-ANA at 4 7 8 10 11 12 13 14	60.4 a.u.
2'F-ANA at 3 5 9 12 13 14	94.2 a.u.
2'F-ANA at 1 3 5 8 10	57.9 a.u.
2'F-ANA at 1 5 6 9 10 11 12 15	128 a.u.
2'F-ANA at 5 7 8 9 11 12 14 15	65.8 a.u.
2'F-ANA at 3 5 6 8 9 10 12 13 14	49 a.u.
2'F-ANA at 5 6 7 10 11 12 13 14 15	46.1 a.u.
2'F-ANA at 2 3 5 6	96.5 a.u.
2'F-ANA at 3 4 6 7 8 10 11 12 13 14	166 a.u.
2'F-ANA at 1 2 4 5 6 8 11 12 13 15	61.5 a.u.
2'F-ANA at 3 4 6 9 10 11 12 13 14	158 a.u.
2'F-ANA at 1 3 5 6 9 10 11 12 13	76.5 a.u.
2'F-ANA at 1 4 6 8 9 10 11 12 13 14 15	50.1 a.u.
2'F-ANA at 1 2 3 4 9 10 12 13 14 15	54.1 a.u.

Set 4 — technique: RNA Bind-n-Seq; form: RNA; matrix: in vitro; tested at: 200 nM; notes: whole 134-nt RNA, ends assumed; together with: 150 mM LiCl; baseline: input library; direction: higher = stronger binding; each molecule: 7-deaza-guanosine replaces G
Target: Ras GTPase-activating protein-binding protein 1, full length (G3BP1, Homo sapiens, UniProt Q13283)
UniProt Q13283, sequence (whole entry, looked up): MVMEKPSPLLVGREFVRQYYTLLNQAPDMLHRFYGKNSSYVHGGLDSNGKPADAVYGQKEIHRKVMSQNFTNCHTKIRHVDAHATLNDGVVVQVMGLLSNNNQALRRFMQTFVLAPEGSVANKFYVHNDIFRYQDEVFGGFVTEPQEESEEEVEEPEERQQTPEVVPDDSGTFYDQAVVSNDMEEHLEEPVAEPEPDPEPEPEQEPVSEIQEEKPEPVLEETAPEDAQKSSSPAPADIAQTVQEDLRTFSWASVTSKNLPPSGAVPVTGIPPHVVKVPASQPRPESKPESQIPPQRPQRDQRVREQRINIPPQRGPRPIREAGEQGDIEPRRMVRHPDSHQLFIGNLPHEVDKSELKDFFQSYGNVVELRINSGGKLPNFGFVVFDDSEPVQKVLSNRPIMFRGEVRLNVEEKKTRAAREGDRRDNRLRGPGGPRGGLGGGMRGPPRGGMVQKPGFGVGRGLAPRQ
All sequences stand within: GGGAGUUCUACAGUCCGACGAUC … UGGAAUUCUCGGGUGUCAAGG
Oligonucleotide	log2 enrichment
AAGUCCUGUGCUACACAUCGUAUGUACCGAAUCGGGAGGGUUUGGGAAAAAAAGGGAAAGUAUUAUGUUACGCCGUUCGGAUCUGCACUU	-0.584
UGCUGCGGAAGGGCUCUGGCACUCUGUGUGAGGCCUUGCUGAUGGUGCAGGCCUUCCACGCCAACAUCAUCUUCCCCAACAAGCAAGAGC	-0.716
UAGGUGUUAUCUUCAGGAAGGCACACUGGACCUGCUAAAUUAACAAAUGGAAAGAAAGCGUAAGUACUUGAAGACGUUUACAACUUCAGA	-2.53
UCAAGUCCUGUGCUACACAUCGUAUGUACCGAAUCGGAAAGGUUUUUGGUUUGGAAAGUAUUAUGUUACGCCGUUCGGAUCUGCACUUCC	-1.49
UAACUUUAGAGGAGGAUCUGAUGGAUAUGGCAGUGGACGUGGACUUGGGGAUGGCUAUAAUGGGUAUGGAGGAGGACCUGGAGGUGGCAA	-0.731
CAAGUCCUGUGCUACACAUCGUAUGUACCGAAUCGGGCCCCGGCCCCGGCCCCGGGAAAGUAUUAUGUUACGCCGUUCGGAUCUGCACUU	-0.967
UCAAGUCCUGUGCUACACAUCGUAUGUACCGAAUCGGGCCCGGCCCGGCCCGGGAAAGUAUUAUGUUACGCCGUUCGGAUCUGCACUUCC	-0.693
GUCCUGUGCUACACAUCGUAUGUACCGAAUCGGGAAAAAGGGGAAAAAGGGGAAAAAGGAAAGUAUUAUGUUACGCCGUUCGGAUCUGCA	0.175

For quick reference, copied from above (set 1):
Oligonucleotide	bound/input enrichment [ratio]
CUGGCCUUCUGAGCAUCAGGGGCCUCCUUUCGUAUAGUCACUGCUUCUGCAUCAGAUACUUUCAGCUGCAACUCCCUACUGGGUGGGGCACCCAUUUGAGGCAGGGUGUUUUGGUACCCU	0.297
CUUAAUGUUAAUAUUUUUAAAGGAAGCUAAAACCAUGGUCUGCUUUUGGUACAACACGCAUUAAUAAAAGGUUAAGUUUUGUUUUCCACUGAAGUACUAUUUAACAUCUCAGAAAAAAAC	0.247
AAAGUGAUAACCAUGUUUGUCCAACGACAGGUGUUUGCGGAGAGCAAAGAUGAGAUUGCGUUAGUCCUCUAUGGCACAGAUGGCACUGAUAAUGCCCUUGCUGGCAAGGACCAGUAUCAG	0.135
ACUCUUGACUCUUUCCAUCCUCUUCCUUUUCCUCUUGAUAUUCAAGGCCAUGAAUCCCAAAAUAACAGUCUUAGUGGCUAGCACCCACCCAAACUGAGAAUAAAUCCACCCCAGUGUCUC	0.471
